Measured values from different studies.
Numbers after ± are the reported error.
Cell line: HL-60

SMILES	read-out	technique	time	together with	IC50 [µM]
Cn1c2ccc(Cl)c(=O)c-2nc2ccccc21	cell growth or viability	CCK-8	72 h		3.56
[Ru+2].c1ccc(-c2cccc(-c3ccccn3)n2)nc1.c1ccc2nc(-c3ccc4ccccc4n3)ccc2c1.c1cnccn1	cell viability			light 22 J/cm^2	17.7 ± 0.1
Cc1cccc2c(=O)c3c(NCCCCCC(=O)Nc4ccccc4N)ccc([N+](=O)[O-])c3[nH]c12	cell growth or viability	MTT	72 h		1.1
CCCCN(C)C(=S)SC[C@@H]1C(=O)O[C@H]2[C@H]1CC/C(C)=C/CC[C@@]1(C)O[C@@H]21	cell growth or viability	MTT	72 h		11.3
Cc1cc(/C=C/C#N)cc(C)c1Oc1cc(Nc2ccc(C#N)cn2)nc2ccncc12			48 h		> 120
COc1c(O)cc2oc3cc4c(c(O)c3c(=O)c2c1CC(O)C(C)(C)O)CC(O)O4 (stereo not drawn)	cell growth or viability		48 h		> 40
CC1=C(Cn2c3ccc(Cl)c(=O)c-3nc3ccccc32)CCC(C)(C)C1	cell growth or viability	CCK-8	72 h		0.23
CSCCC(NC(C)=O)C(=O)O.[Ru+2].c1ccc(-c2cccc(-c3ccccn3)n2)nc1.c1ccc(-c2ccccn2)nc1	cell viability			light 22 J/cm^2	> 100
CCCN(CCC)C(=S)SC[C@@H]1C(=O)O[C@H]2[C@H]1CC/C(C)=C/CC[C@@]1(C)O[C@@H]21	cell growth or viability	MTT	72 h		20.7
COc1c(O)cc2oc3cc(O)c4c(c3c(=O)c2c1CCC(C)(C)O)OC(C)(C)CC4	cell growth or viability		48 h		> 40
Cc1cc(C#N)cc(C)c1Oc1cc(Nc2ccc(C#N)cn2)nc2ccncc12			48 h		> 127
COc1c(O)c(Br)c2oc3c(Br)c(O)c(CC=C(C)C)c(O)c3c(=O)c2c1CC=C(C)C	cell growth or viability		48 h		16.9
O=C1c2ccc3c4cccc5c(N6CCNCC6)ccc(c6ccc(c2c36)C(=O)N1CCN1CCCCC1)c54	cell growth or viability	SRB	72 h		50.9
CC(C)=CCc1c(O)cc2oc3cc(O)c(O)c(CC=C(C)C)c3c(=O)c2c1O	cell growth or viability		48 h		7.39
C/C1=C\CC[C@@]2(C)O[C@H]2[C@H]2OC(=O)[C@@H](CSC(=S)N(C)C)[C@@H]2CC1	cell growth or viability	MTT	72 h		7.3
COc1c(O)cc2oc3c(Cl)c(O)c(CC=C(C)C)c(O)c3c(=O)c2c1CC=C(C)C	cell growth or viability		48 h		> 40
Cc1cc(/C=C/C#N)cc(C)c1Oc1cc(Nc2ccc(C#N)cn2)nc2cnccc12			48 h		> 120
COc1c(O)c(Br)c2oc3c(Br)c(O)c(CCC(C)C)c(O)c3c(=O)c2c1CCC(C)C	cell growth or viability		48 h		14.9

SMILES	read-out	technique	time	together with	IC50 [µM]
C/C1=C\CC[C@@]2(C)O[C@H]2[C@H]2OC(=O)[C@@H](CSC(=S)N(C)c3ccccn3)[C@@H]2CC1	cell growth or viability	MTT	72 h		38.9
CC1=C(Cn2c3cccc(=O)c-3nc3ccccc32)CCC(C)(C)C1	cell growth or viability	CCK-8	72 h		0.36
O=C1c2ccc3c4ccc5c6c(ccc(c7ccc(c2c37)C(=O)N1CCN1CCCCC1)c64)C(=O)N(CCN1CCCCC1)C5=O	cell growth or viability	SRB	72 h		86.2
C/C1=C\CC[C@@]2(C)O[C@H]2[C@H]2OC(=O)[C@@H](CSC(=S)N(C)c3cccnc3)[C@@H]2CC1	cell growth or viability	MTT	72 h		39.3
Cc1cccc2c(=O)c3c(NCCCCCCC(=O)Nc4ccccc4N)ccc([N+](=O)[O-])c3[nH]c12	cell growth or viability	MTT	72 h		4.3
C/C1=C\CC[C@@]2(C)O[C@H]2[C@H]2OC(=O)[C@@H](CSC(=S)NCCN(C)C)[C@@H]2CC1	cell growth or viability	MTT	72 h		24.7
Cc1ccc(C(=O)C2Sc3nnc(-n4nc(C)cc4C)n3NC2c2ccc(Cl)cc2)cc1 (racemic)	cell growth or viability	imaging	72 h		> 100
COc1c(O)cc2oc3cc(O)c(CCC(C)C)c(O)c3c(=O)c2c1CCC(C)C	cell growth or viability		48 h		11.1
CCNC(=O)Nc1ccc(S(=O)(=O)Oc2ccccc2CC)cc1	cell growth or viability	MTT	48 h		10
CSC[C@@H]1C(=O)O[C@H]2[C@H]1CC/C(C)=C/CC[C@@]1(C)O[C@@H]21	cell growth or viability	MTT	72 h		> 50
C(=C/c1ccccc1)/c1ccccc1	cell growth or viability	ATP luminescence	24 h		32
Cc1cc(C=O)cc(C)c1Oc1cc(Nc2ccc(C#N)cn2)nc2ccncc12			48 h		41.1 ± 14.2
CC(C)(C)c1ccc2[c](c1)[Au-]1([Cl])[c]3cc(C(C)(C)C)ccc3-c3cncc-2[n+]31	cell growth or viability	MTS			3.71
Cc1cc(C#N)cc(C)c1Oc1cc(Nc2ccc(C#N)cc2)nc2ccncc12			48 h		> 128
C/C1=C\CC[C@@]2(C)O[C@H]2[C@H]2OC(=O)[C@@H](CSC(=S)N3CCCCC3)[C@@H]2CC1	cell growth or viability	MTT	72 h		7.4
CCN(CC)CCN1C(=O)c2ccc3c4cccc5c(NCCN)ccc(c6ccc(c2c36)C1=O)c54	cell growth or viability	SRB	72 h		7.4
COc1c(O)cc2oc3cc(O)c(CC=C(C)C)c(O)c3c(=O)c2c1CC=C(C)C	cell growth or viability		48 h		15
C=C1C(=O)OC2C1CCC1(C)CC1CCC1(C)OC21 (stereo not drawn)	cell growth or viability	resazurin			4.4

Some of these lines once more:
SMILES	read-out	technique	time	together with	IC50 [µM]
CCCN(CCC)C(=S)SC[C@@H]1C(=O)O[C@H]2[C@H]1CC/C(C)=C/CC[C@@]1(C)O[C@@H]21	cell growth or viability	MTT	72 h		20.7
C=C1C(=O)OC2C1CCC1(C)CC1CCC1(C)OC21 (stereo not drawn)	cell growth or viability	resazurin			4.4
